Assay results collected from several papers.
Parts stem from different laboratories: compare values within a part only.

Block 1
Target: RNA binding protein fox-1 homolog 2, RRM domain, GST-SBP tag (RBFOX2, Homo sapiens, UniProt O43251-10, residues 100-194)
Method: RNA Bind-n-Seq
Form: RNA
Sample: in vitro
Concentration: 365 nM
Notes: natural RNA segment, single round, ends assumed
Baseline: no-protein control
Reading: higher = stronger binding
Shared flanks, not repeated: GGGAGUUCUACAGUCCGACGAUC … UGGAAUUCUCGGGUGCCAA
Construct (chain): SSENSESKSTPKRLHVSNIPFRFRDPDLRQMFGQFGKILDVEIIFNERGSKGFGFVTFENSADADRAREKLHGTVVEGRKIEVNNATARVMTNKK
Oligonucleotide | RBNS enrichment (R)
AAAAGAAAUUUGAUGCCCAGAUAAUAUAUUAGGCACUACUGAUUUUUUAGUUAAAUUGAUGCACUACACUUUUGAUGUUUGAAGUUACAAACCUGUAAUUUUUUUGUAAA | 0.509
AUUCCCCAACCCUUCCUUAUGAGCAUUUUUAGAACAUUGGCUAAGACUAUUUUCCCCCAGUAGCGCUUUUUUCUGGAUUUGCAUUCAGGUGUUAUUCUUAAUGUUUCUGU | 2.4
GCAGAGCUGCCAGGCUCCCAGGAGAGCAUGGGGACUAGGAGGAAGGGUGUGGCAUGGCUCAGUCUGGCCCCCUUGAUUACCGGCCUAGCCCCUGCUCACAUCACAGCUGU | 0.307
ACUGCCUGGAGGGCAGGGAGUGGGAGCCAAUGAACAGGCAUGCAAGUGAGAGCUUCCUGAGCUUUCUCCUGUCGGUUUGGUCUGUUUUGCCUUCACCCAUAAGCCCCUCG | 0.788
CAUUUUCACAAUAAACAGAUCUGUUCAUACAUUUUUGUUAUUUUAUAAAUAAAUUACUUAAUUUUAGUUUGUAUCUGUGGGAUUUUUUUUUUUACCUUGCUGCCUACAUU | 1.65
CUGAGGUCAUGCGGUUGGACACUGAACUUGGUAAAGACGUCCUUCCCCAAGGAAGCCAUAAUGUGCAGAUGAACUGACCGAAGGAAAAGCUUGAGACAGCUUCCUGCGGG | 0.382
AGAGGGCAAAAAGUGGCCUGGGCUCUGUUGGUGUGCGUGUUCCGUGGCGGAGAGAAGAAAAUGGGAAAGACAUCUCACUGGUGCUUUUCUCUUUUGUUUUAGUGCCCCCC | 0.414
UACAUGGAUGUCAGGAGAGCUGCUGCCCUCUUGGCGUGAGUUGCGUAUUCAGGCUGCUUUUGCUGCCUUUGGCCAGAGAGCUGGUUGAAGAUGUUUGUAAUCGUUUUCAG | 0.174

Block 2
Target: Krueppel-like factor 3, full length (KLF3, Homo sapiens, UniProt P57682, residues 1-345)
UniProt P57682, sequence (whole entry, looked up): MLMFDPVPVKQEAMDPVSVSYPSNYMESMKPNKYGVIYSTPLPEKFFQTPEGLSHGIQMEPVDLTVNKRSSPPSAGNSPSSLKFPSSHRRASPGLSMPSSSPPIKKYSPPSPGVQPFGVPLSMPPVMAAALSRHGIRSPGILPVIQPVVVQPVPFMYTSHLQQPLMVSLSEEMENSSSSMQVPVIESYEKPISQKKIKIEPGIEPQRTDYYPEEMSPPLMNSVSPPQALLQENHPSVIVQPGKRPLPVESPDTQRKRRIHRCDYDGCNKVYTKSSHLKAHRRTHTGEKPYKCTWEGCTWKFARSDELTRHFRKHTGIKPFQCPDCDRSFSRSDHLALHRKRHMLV
Method: protein-binding microarray
Form: hairpin DNA
Sample: in vitro
Concentration: not given
Notes: whole hairpin DNA, median over replicate spots
Baseline: not given
Reading: higher = stronger binding
Oligonucleotide | median fluorescence [a.u.]
GAGGCCGACCACACCCAGCCTCCTGGCTGGGTGTGGTCGGCCTCACACTC | 8610
GAGGCCGACCACGCCTAGCCTCCTGGCTAGGCGTGGTCGGCCTCACACTC | 9130
GAGGCCGACCACGTCCAGCCTCCTGGCTGGACGTGGTCGGCCTCACACTC | 8800
GAGGCCGACCACGCCCAGCCTCCTGGCTGGGCGTGGTCGGCCTCACACTC (5mC at 10) | 8330
GAGGCCCGCCACGCCCAGCCTCCTGGCTGGGCGTGGCGGGCCTCACACTC (5mC at 7) | 9080
GAGGCCGACCGCGCCCAGCCTCCTGGCTGGGCGCGGTCGGCCTCACACTC (5mC at 12 32) | 8620
GAGGCCCGCCGCGCCCAGCCTCCTGGCTGGGCGCGGCGGGCCTCACACTC (5mC at 7 37) | 8730
GAGGCCTACCGCGCCCAGCCTCCTGGCTGGGCGCGGTAGGCCTCACACTC | 8550
GAGGCCGACCACGCCGAGCCTCCTGGCTCGGCGTGGTCGGCCTCACACTC (5mC at 29) | 9460
GAGGCCGACCACCCCCAGCCTCCTGGCTGGGGGTGGTCGGCCTCACACTC | 8650
GAGGCCGCGCACGCCCAGCCTCCTGGCTGGGCGTGCGCGGCCTCACACTC (5mC at 36) | 10100
GAGGCCCGCCGCGCCCAGCCTCCTGGCTGGGCGCGGCGGGCCTCACACTC (5mC at 37) | 8670
GAGGCCAACCACGCCCAGCCTCCTGGCTGGGCGTGGTTGGCCTCACACTC | 9280
GAGGCCGACCACGCCCAGCCTCCTGGCTGGGCGTGGTCGGCCTCACACTC (5mC at 32) | 9080
GAGGCCGACCGCCGCCAGCCTCCTGGCTGGCGGCGGTCGGCCTCACACTC | 8410
GAGGCCCGCCGCGCCCAGCCTCCTGGCTGGGCGCGGCGGGCCTCACACTC (5mC at 7) | 8520
GAGGCCGACCGCGCCCAGCCTCCTGGCTGGGCGCGGTCGGCCTCACACTC (5mC at 32 34) | 8640
GAGGCCGACCACGCACAGCCTCCTGGCTGTGCGTGGTCGGCCTCACACTC | 9780
GAGGCCGACCGCGCCCAGCCTCCTGGCTGGGCGCGGTCGGCCTCACACTC (5mC at 10 12) | 8210
GAGGCCGACCACGACCAGCCTCCTGGCTGGTCGTGGTCGGCCTCACACTC | 8800
GAGGCCCACCACGCCCAGCCTCCTGGCTGGGCGTGGTGGGCCTCACACTC (5mC at 7) | 9270
GAGGCCGACCGCGCCTAGCCTCCTGGCTAGGCGCGGTCGGCCTCACACTC | 8260

Block 3
Target: Sal-like protein 4, full length isoform B (SALL4, Homo sapiens, UniProt Q9UJQ4-2, residues 1-616)
Method: universal PBM
Form: double-stranded DNA, one strand shown
Sample: in vitro
Concentration: not given
Notes: 8-mer, flanks averaged, mean of replicates
Reading: higher = stronger binding
Construct (chain): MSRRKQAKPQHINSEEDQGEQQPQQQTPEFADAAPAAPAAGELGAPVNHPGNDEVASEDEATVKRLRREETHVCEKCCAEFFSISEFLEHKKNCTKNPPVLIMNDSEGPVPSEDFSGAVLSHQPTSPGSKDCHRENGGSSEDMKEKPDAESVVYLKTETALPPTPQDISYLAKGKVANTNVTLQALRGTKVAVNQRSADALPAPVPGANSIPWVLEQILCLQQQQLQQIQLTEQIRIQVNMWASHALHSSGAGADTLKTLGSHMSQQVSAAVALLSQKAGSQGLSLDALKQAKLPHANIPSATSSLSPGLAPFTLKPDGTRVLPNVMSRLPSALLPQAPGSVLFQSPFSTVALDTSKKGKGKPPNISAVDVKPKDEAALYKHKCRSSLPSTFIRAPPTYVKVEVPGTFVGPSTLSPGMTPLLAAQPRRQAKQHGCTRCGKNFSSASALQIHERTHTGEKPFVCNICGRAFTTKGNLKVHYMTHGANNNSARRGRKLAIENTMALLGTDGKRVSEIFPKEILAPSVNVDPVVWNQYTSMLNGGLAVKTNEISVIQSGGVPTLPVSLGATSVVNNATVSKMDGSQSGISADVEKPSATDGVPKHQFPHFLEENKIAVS
Oligonucleotide | E-score
CCTTACAC | 0.0503
CTGATTGC | -0.0397
CCAAGGGC | -0.166
AATTAAGG | 0.19
AAAGGCAG | 0.0579
GGTTACCA | -0.199
CACACGCC | -0.024
ACCAACAC | 0.0427
CATGATAG | 0.212
AGACGCGA | -0.0761
CCCACTGA | -0.216
CCGAGCAA | -0.293
CAGCTTAG | -0.154
GCCCATCC | -0.128
CGTCAATA | 0.187
AGAGTGGG | -0.13
ACCTAGTG | 0.0284
AGCGGCTC | -0.33
CCTCCTGC | -0.223
CAGTATCG | -0.0229
AACCTGTC | -0.0504
AAGAGCGC | -0.129
CATTCCGC | -0.238
AAGTTCAC | -0.124
CGGATAAA | 0.173

Block 4
Target: Prothrombin, mature alpha-thrombin (F2, Homo sapiens, UniProt P00734)
Method: aptamer microarray, sandwich
Form: DNA with 2'F-ANA
Sample: in vitro
Concentration: 200 nM
Notes: whole 15-mer aptamer, many near background
Added: Cy3 exosite-II aptamer, 400 nM
Reading: higher = stronger binding
Oligonucleotide: GGTTGGTGTGGTTGG
Modification | mean fluorescence intensity
2'F-ANA at 1 2 3 7 8 9 11 12 | 430 a.u.
2'F-ANA at 2 5 6 8 9 11 14 | 53.3 a.u.
2'F-ANA at 1 4 6 7 9 12 13 14 | 51.8 a.u.
2'F-ANA at 1 2 3 4 5 6 9 | 65.2 a.u.
2'F-ANA at 1 4 6 8 9 11 13 14 | 49.3 a.u.
2'F-ANA at 1 2 3 5 8 11 13 | 51.7 a.u.
2'F-ANA at 1 2 5 6 10 11 12 13 | 49.6 a.u.
2'F-ANA at 3 5 7 8 9 11 12 13 | 180 a.u.
2'F-ANA at 2 4 6 7 9 11 13 14 15 | 66.7 a.u.
2'F-ANA at 2 3 4 5 9 12 15 | 175 a.u.
2'F-ANA at 1 2 4 6 8 9 10 13 15 | 59.7 a.u.
2'F-ANA at 1 2 3 4 5 6 7 9 11 12 13 15 | 68.3 a.u.
2'F-ANA at 3 4 5 6 8 9 10 | 51 a.u.
2'F-ANA at 1 4 5 6 8 9 10 12 13 14 15 | 47.3 a.u.
2'F-ANA at 2 4 6 8 10 15 | 87.8 a.u.
2'F-ANA at 1 2 3 5 7 9 11 13 14 15 | 48.7 a.u.
2'F-ANA at 6 7 8 10 11 12 13 | 173 a.u.
2'F-ANA at 4 7 9 10 12 13 14 15 | 73.3 a.u.
2'F-ANA at 1 6 7 8 9 10 12 13 14 | 53.5 a.u.
2'F-ANA at 3 6 7 8 10 11 12 | 604 a.u.
2'F-ANA at 1 2 3 7 10 11 12 13 | 85.5 a.u.
2'F-ANA at 3 4 6 9 11 | 490 a.u.

A few entries again (block 3):
Oligonucleotide | E-score
CCAAGGGC | -0.166
AATTAAGG | 0.19
AAAGGCAG | 0.0579
GGTTACCA | -0.199
